Measured values of several laboratories.
Lines come from different studies, so protocols differ. ± gives the spread as reported. In brackets after ≈: the same amount, converted by molar mass.

Compound | target or system | assay | test system | conditions | measurement | value
CN1CCn2cc(C(=O)NCc3ccc(F)cc3F)c(=O)c(O)c2C1=O | human immunodeficiency virus 1 | single-round vector infection | integrase R263K | – | EC50 | 12.8 ± 2.2 nM
O=C(NC1CCN(c2ncnc3[nH]cnc23)CC1)c1cccc(NS(=O)(=O)c2ccc(C(F)(F)F)cc2)c1 | monkeypox virus E1/E12 | – | – | 200 µM | inhibition | 30.4%
CC[C@H](C)[C@H](NC(=O)[C@H](CC(C)C)NC(=O)[C@@H](NC(=O)[C@@H](NC(=O)[C@H](CC(C)C)NC(=O)[C@H](CCCCN)NC(=O)[C@@H](N)CCCCN)[C@@H](C)CC)[C@@H](C)O)C(=O)N[C@@H](Cc1ccccc1)C(=O)N[C@@H](CCCCN)C(=O)N[C@@H](CCCCN)C(=O)N[C@H](C(=O)N[C@@H](CCCNC(=N)N)C(=O)N[C@@H](CCC(=O)O)C(=O)N[C@@H](CCCCN)C(=O)N[C@@H](CCCCN)C(=O)N[C@@H](CCCCN)C(=O)N[C@@H](CCC(=O)O)C(=O)N[C@@H](CS)C(=O)N[C@@H](CC(C)C)C(=O)N[C@H](C(=O)O)C(C)C)[C@@H](C)O | TTX-sensitive sodium channel (mouse) | resurgent sodium current, open-channel blocker, whole-cell patch clamp | mouse hippocampal CA3 neurons | 200 µM intracellular, 22 °C, step to +30 mV, 10 ms, added: repolarisation to -30 mV | decay time constant | 8.8 ± 0.5 ms
CC(C)N1CCn2cc(C(=O)NCc3ccc(F)cc3F)c(=O)c(O)c2C1=O | HIV-1 | viral replication, single-round vector infection | IN E138K/G140C/Q148R | – | EC50 | 54.2 ± 11.9 nM
CC[C@H](C)[C@H](NC(=O)[C@H](CCCCN)NC(=O)[C@H](Cc1c[nH]c2ccccc12)NC(=O)[C@H](CC(C)C)NC(=O)[C@H](CC(C)C)NC(=O)[C@H](CC(=O)O)NC(=O)[C@@H](NC(=O)[C@H](CCCNC(=N)N)NC(=O)[C@H](CCC(=O)O)NC(=O)[C@H](CCCNC(=N)N)NC(=O)[C@H](CC(=O)O)NC(=O)[C@H](CC(C)C)NC(C)=O)[C@@H](C)CC)C(=O)N[C@@H](C)C(=O)N[C@@H](CCCNC(=N)N)C(=O)N[C@@H](C)C(=O)NCC(=O)N[C@@H](C)C(=O)N[C@@H](CCCNC(=N)N)C(=O)N[C@@H](CO)C(=O)N[C@@H](C)C(=O)N[C@H](C(=O)NCC(N)=O)C(C)C | – | tryptophan fluorescence | POPC/POPG/chol 7:2:1 SUV | pH 7.5, 25 °C | membrane partition coefficient | 26000 ± 10000
Cc1cc(/C=C/C#N)cc(C)c1Nc1nc(Nc2ccc(C#N)cc2)ncc1N | HIV-1 | viral replication, single-round infection | RT mutant V111A | – | EC50 | 0.2 ± 0.1 nM
CC[C@H](C)[C@H](NC(=O)[C@H](CCCCN)NC(=O)[C@H](CCCCN)NC(=O)[C@H](CC(C)C)NC(=O)[C@H](Cc1c[nH]c2ccccc12)NC(=O)CN)C(=O)NCC(=O)N[C@@H](CCCCN)C(=O)N[C@@H](CCCCN)C(=O)N[C@H](C(=O)N[C@@H](CCC(=O)O)C(=O)N[C@@H](CCCNC(=N)N)C(=O)N[C@H](C(=O)NCC(=O)N[C@@H](CCC(N)=O)C(=O)N[C@@H](Cc1c[nH]cn1)C(=O)N[C@H](C(=O)N[C@@H](CCCNC(=N)N)C(=O)N[C@@H](CC(=O)O)C(=O)N[C@@H](C)C(=O)N[C@H](C(=O)N[C@H](C(=O)N[C@@H](CCC(N)=O)C(=O)N[C@H](C(=O)N[C@H](C(=O)NCC(=O)N[C@H](C(=O)N[C@@H](C)C(=O)N[C@@H](CCC(N)=O)C(=O)N[C@@H](CCC(N)=O)C(=O)N[C@@H](C)C(=O)N[C@@H](C)C(=O)N[C@@H](CC(N)=O)C(=O)N[C@H](C(=O)N[C@@H](C)C(=O)N[C@@H](C)C(=O)N[C@H](C(=O)N[C@@H](CC(C)C)C(=O)N[C@@H](CCCCN)C(N)=O)[C@@H](C)O)C(C)C)C(C)C)[C@@H](C)CC)[C@@H](C)O)[C@@H](C)CC)[C@@H](C)O)[C@@H](C)O)C(C)C)[C@@H](C)CC | Escherichia coli | – | isolate RKI 131/03, CAMHB | – | MIC | 4 µg/mL (≈ 0.952 µM)
C[C@@H]1O[C@@H](O[C@H]2[C@H](O)[C@@H](O)[C@H](OC[C@H]3O[C@@H](O[C@H]4CC[C@@]5(C)[C@@H](CC[C@]6(C)[C@@H]5C=C[C@]57OC[C@@]8(CCC(C)(C)C[C@H]85)[C@@H](O)C[C@]76C)[C@]4(C)CO)[C@H](O)[C@@H](O)[C@@H]3O)O[C@@H]2CO)[C@H](O)[C@H](O)[C@H]1O | HEK293T | entry of SARS-CoV-2 spike pseudotyped lentivirus | – | 10 µM | inhibition | 50 to 90%
Cc1cc(/C=C/C#N)cc(C)c1-n1cnc2cnc(Nc3ccc(C#N)cc3)nc21 | HIV-1 | viral replication, single-round infection | RT mutant H221Y | – | EC50 | 1.3 ± 0.4 nM

A few entries again:
Compound | target or system | assay | test system | conditions | measurement | value
CC[C@H](C)[C@H](NC(=O)[C@H](CC(C)C)NC(=O)[C@@H](NC(=O)[C@@H](NC(=O)[C@H](CC(C)C)NC(=O)[C@H](CCCCN)NC(=O)[C@@H](N)CCCCN)[C@@H](C)CC)[C@@H](C)O)C(=O)N[C@@H](Cc1ccccc1)C(=O)N[C@@H](CCCCN)C(=O)N[C@@H](CCCCN)C(=O)N[C@H](C(=O)N[C@@H](CCCNC(=N)N)C(=O)N[C@@H](CCC(=O)O)C(=O)N[C@@H](CCCCN)C(=O)N[C@@H](CCCCN)C(=O)N[C@@H](CCCCN)C(=O)N[C@@H](CCC(=O)O)C(=O)N[C@@H](CS)C(=O)N[C@@H](CC(C)C)C(=O)N[C@H](C(=O)O)C(C)C)[C@@H](C)O | TTX-sensitive sodium channel (mouse) | resurgent sodium current, open-channel blocker, whole-cell patch clamp | mouse hippocampal CA3 neurons | 200 µM intracellular, 22 °C, step to +30 mV, 10 ms, added: repolarisation to -30 mV | decay time constant | 8.8 ± 0.5 ms
